Published values pooled from the literature.

SMILES | test | system | setting | endpoint | result
CC(C)C[C@H](NC(=O)[C@@H](Cc1c[nH]c2ccccc12)NC(=O)[C@H](Cc1ccc(O)cc1)NC(=O)[C@H](CO)NC(=O)[C@H](Cc1c[nH]c2ccccc12)NC(=O)[C@H](Cc1c[nH]cn1)NC(=O)[C@@H]1CCC(=O)N1)C(=O)N[C@@H](CCCNC(=N)N)C(=O)N1CCC[C@H]1C(=O)NCC(N)=O |  | Chinese CPP children, overall | intramuscular, 22.5 mg, 12 months, day 1, month 6 | patients who died | 0%
Cc1nc(-c2cnc(NC(C)C)n(C)c2=O)ccc1Oc1ccnc(-c2cnn(C)c2)c1 |  | patients with TGCT | oral, dose not given, NCI-CTCAE v4.03 | patients with serious treatment-related TEAE | 6%
C[C@@H]1OC(=O)NN=C1c1ccc(-c2ccc(F)cc2)c(C(F)(F)F)c1 |  | patients, phase I trial | oral, dose not given, all arms, any grade TEAE | patients with muscle spasms | 40%
COc1ccc(-c2c(-c3ccc(C#N)c(F)c3)nc(N3CCC(N)CC3)n(C)c2=O)cc1F | item: rash maculo-papular | neuroendocrine neoplasm patients | oral, 60 mg, dose expansion | patients with TRAE any grade | 0%
O=C1Nc2cc3[nH]nc(-c4ccncc4)c3cc2CN1Cc1ccccc1 | item: Vomiting | patients with advanced solid tumours | intravenous, dose not given, all schedules | patients with TEAE | 35%
CN1CC[C@@H](c2c(O)cc(O)c3c(=O)cc(-c4ccc(C(F)(F)F)cc4Cl)oc23)[C@@H]1CO | item: Sepsis | relapsed AML | oral, 100 mg, grade 3-4, intermittent dosing | patients with adverse event | 0%
C=CCNc1c(O)cc2c(O)c1C[C@@H](C)C[C@H](OC)[C@H](O)[C@@H](C)/C=C(\C)[C@H](OC(N)=O)[C@@H](OC)/C=C\C=C(/C)C(=O)N2 |  | unresectable or metastatic sarcoma | intravenous, 300 mg/m^2, grade 3-4 lab change | patients with AST increase | 0%
COc1cc2c(Oc3ccc4[nH]c(C)cc4c3F)ccnc2cc1OCC1(N)CC1 |  | paediatric refractory sarcoma patients | dose not given | patients with grade 3 Cholesterol elevation | 0%
CO[C@H]1C[C@@H]2CC[C@@H](C)[C@@](O)(O2)C(=O)C(=O)N2CCCC[C@H]2C(=O)O[C@H]([C@H](C)C[C@@H]2CC[C@@H](OC(=O)NCCOCCOCCOCCOCCOCCOCCOCCOCCC(=O)N3CCc4cc(Cn5nc(-c6ccc7oc(N)nc7c6)c6c(N)ncnc65)ccc4C3)[C@H](OC)C2)C[C@@H](O)[C@H](C)/C=C(\C)[C@@H](O)[C@@H](OC)C(=O)[C@H](C)C[C@H](C)/C=C/C=C/C=C/1C | item: grade ≥3 TEAE | patients with advanced solid tumours | intravenous, dose not given, all patients, weekly | patients with AE | 68%
CC(=O)c1c(C)c2cnc(Nc3ccc(C4CCN(CCS(C)(=O)=O)CC4)cn3)nc2n(C2CCCC2)c1=O |  | HR+/HER2- advanced breast cancer patients | oral, dose not given, all grades, dose escalation, sample B patients | patients with vomiting | 21.1%
Cn1cc(-c2nc(N[C@@H]3CCCC[C@@H]3N)c(F)c3c2C(=O)NC3)cn1 |  | relapsed/refractory AML patients | oral, dose not given, phase Ib trial, all doses | patients with any bleeding | 70%
COc1nnc2ccc(N3CCC(c4ccc(OCCN5CCN(C)C(=O)[C@H]5C)cc4)CC3)nn12 | item: diarrhea | patients with solid tumours or lymphoma | oral, dose not given, all grades, treatment-related | patients with adverse event | 29.4%
N[C@@H]1c2ccccc2OC12CCN(c1cnc3c(N4CCCc5ncccc54)n[nH]c3n1)CC2 |  | advanced solid tumour patients | oral, 20 mg once daily | patients with fatal TEAE | 0%

Excerpt of the above:
SMILES | test | system | setting | endpoint | result
COc1cc2c(Oc3ccc4[nH]c(C)cc4c3F)ccnc2cc1OCC1(N)CC1 |  | paediatric refractory sarcoma patients | dose not given | patients with grade 3 Cholesterol elevation | 0%
CO[C@H]1C[C@@H]2CC[C@@H](C)[C@@](O)(O2)C(=O)C(=O)N2CCCC[C@H]2C(=O)O[C@H]([C@H](C)C[C@@H]2CC[C@@H](OC(=O)NCCOCCOCCOCCOCCOCCOCCOCCOCCC(=O)N3CCc4cc(Cn5nc(-c6ccc7oc(N)nc7c6)c6c(N)ncnc65)ccc4C3)[C@H](OC)C2)C[C@@H](O)[C@H](C)/C=C(\C)[C@@H](O)[C@@H](OC)C(=O)[C@H](C)C[C@H](C)/C=C/C=C/C=C/1C | item: grade ≥3 TEAE | patients with advanced solid tumours | intravenous, dose not given, all patients, weekly | patients with AE | 68%
